# Assay results pooled from the literature.
# Each line is one published result; not all experiments were run side by side.
# TYK2 JH2: Non-receptor tyrosine-protein kinase TYK2, JH2 (TYK2, Homo sapiens, UniProt P29597)
# TYK2 JH1: Non-receptor tyrosine-protein kinase TYK2, JH1 (TYK2, Homo sapiens, UniProt P29597)
# TYK2 JH1 domain: Non-receptor tyrosine-protein kinase TYK2, JH1 domain (TYK2, Homo sapiens, UniProt P29597)
# TYK2: Non-receptor tyrosine-protein kinase TYK2 (TYK2, Homo sapiens, UniProt P29597)
SMILES,target,read-out,method,concentration,reference,remaining binding
COc1cc(Nc2nccc(-c3cnn4nc(OC)ccc34)n2)cc(C(F)(F)F)c1,TYK2 JH2,binding,competition with immobilised ligand,1 µM,,100%
C=CC(=O)N1CCCC(n2c(=O)c3ncccc3n(Cc3ccc(Oc4ccccc4)cc3)c2=O)C1 (stereo not shown),TYK2 JH1,cell-free assay,competition with immobilised ligand,1 µM,,74%
C=CC(=O)N1CCc2ccc(-n3c(=O)ccc4cnc5ccc(-c6cnn(C)c6)cc5c43)cc21,"Non-receptor tyrosine-protein kinase TYK2, JH2 pseudokinase domain (TYK2, Homo sapiens, UniProt P29597)",,KINOMEscan,1 µM,DMSO control,100%
CC(=O)N1c2ccc(-c3ccc(CNC(=O)c4cn5cc(-c6cnc(N)nc6)nc(N6CCOCC6)c5n4)cc3)cc2CC[C@@H]1C,TYK2 JH1 domain,,KINOMEscan,10 µM,,88%
CN1CCN(Cc2ccc(NC(=O)c3cccc(C#Cc4cnc(N)c5ncccc45)c3)cc2C(F)(F)F)CC1,TYK2 JH1,cell-free assay,competition with immobilised ligand,0.5 µM,,4.6%
CNC(=O)C1CCN(c2cc(C)c(F)cc2NC(=O)c2ccc(-c3cc(O)ccc3C)c(C)c2)CC1,TYK2 JH1,binding,competition with immobilised ligand,1 µM,,47%
Cc1ccc(-c2n[nH]cc2CNC(=O)C2(C#N)CC2)cc1,TYK2,cell-free assay,competition with immobilised ligand,10 µM,,18%
CCN1CCN(Cc2ccc(NC(=O)c3ccc(C)c(NC(=O)c4cncc(-c5cnn(C)c5)c4)c3)cc2C(F)(F)F)CC1,TYK2 JH2,binding,competition with immobilised ligand,1 µM,,99%
COc1c(Cl)cccc1Nc1c(-c2ccncc2C#C[C@@]2(C)CCCN2C(=O)/C=C/CN(C)C)[nH]c2c1C(=O)NCC2,TYK2,binding,competition with immobilised ligand,3 µM,,65%
CCN1CCN(Cc2ccc(C(=O)Nc3ccc(C)c(NCc4cnc5[nH]ccc5c4OC)c3)cc2C(F)(F)F)CC1,TYK2 JH2,binding,competition with immobilised ligand,1 µM,,100%
Nc1ncc2c(n1)-c1c([nH]c3ccc(C4=CCOCC4)cc13)CCC2,TYK2 JH1,binding,competition with immobilised ligand,1 µM,,54%
COc1cc(Nc2nc(C)cc(-c3cnn4nc(OC)ccc34)n2)cc(C(F)(F)F)c1,TYK2 JH2,binding,competition with immobilised ligand,1 µM,,90%
CC(C)=CC1OC(C)(C)C2C=C3C(=O)C(Cl)=CC(O)C3C3C(O)C4OC4C(=O)C132 (stereo not shown),TYK2 JH1,cell-free assay,competition with immobilised ligand,10 µM,,41%
Cc1c[nH]c2nccc(-c3ccc(C(=O)N[C@@H]4c5c(F)cc(C(F)F)cc5C[C@@H]4O)cn3)c12,TYK2 JH1,binding,competition with immobilised ligand,3 µM,,5.8%
Cc1ccc(-c2c(/C=C(\C#N)C(=O)NC(C)C)n(CCCO)c3ncnc(N)c23)cc1,TYK2 JH1,cell-free assay,competition with immobilised ligand,1 µM,,100%
CNC1C[S+]2CC[S+]3CC[S+](C1)[Ru-4]321([N]=C=S)[n]2c3ccc(OC)cc3c3c4c(c5cc(F)c[n+]1c5c32)C(=O)NC4=O (stereo not shown),TYK2 JH1 domain,,KinomeScan,0.1 µM,untreated,100%

# Repeated from above:
SMILES,target,read-out,method,concentration,reference,remaining binding
Cc1c[nH]c2nccc(-c3ccc(C(=O)N[C@@H]4c5c(F)cc(C(F)F)cc5C[C@@H]4O)cn3)c12,TYK2 JH1,binding,competition with immobilised ligand,3 µM,,5.8%
Cc1ccc(-c2c(/C=C(\C#N)C(=O)NC(C)C)n(CCCO)c3ncnc(N)c23)cc1,TYK2 JH1,cell-free assay,competition with immobilised ligand,1 µM,,100%
